# Results gathered from unrelated publications.
# Protocols differ between the studies behind these lines. ± marks the error that the study gave.
# B1: LexA; sequence looked up; chain MKALTARQQEVFDLIRDHISQTGMPPTRAEIAQRLGFRSPNAAEEHLKALARKGVIEIVSGASRGIRLLQEEEEGLPLVGRVAAGEPLLAQQHIEGHYQVDPSLFKPNADFLLRVSGMSMKDIGIMDGDLLAVHKTQDVRNGQVVVARIDDEVTVKRLKKQGNKVELLPENSEFKPIVVDLRQQSFTIEGLAVGVIRNGDWL
Substance,test,system,setting,EC50
CC1CNc2c(cccc2S(=O)(=O)N[C@@H](CCCNC(=N)N)C(=O)N2CC[C@@H](C)C[C@@H]2C(=O)O)C1 (stereo partly drawn),"platelet activation, inhibitor, ATP release",mouse platelet-rich plasma,"20% plasma, with: thrombin",0.007 µM
COc1cc(-c2cn(-c3ccc(C(C)(C)C)cc3)nn2)[nH]c1/C=N/C1CCCC1,"Cl-/HCO3- exchange, chloride ion-selective electrode",POPC vesicles 0.5 mM,"300 s, pH 7.2, with: NaHCO3 40 mM",0.138 ± 0.017 µM
B1 (LexA),"nucleosome unwrapping, FRET",wild type nucleosome,pH 7.5,1.9 ± 0.4 µM
COC(=O)c1ccc(O)c(O)c1,"hydroxyl radical scavenging, in vitro",,50% scavenging,1.8 ± 0.16 µM
CC[C@H](C)[C@@H]1NC(=O)[C@H](Cc2ccc(O)cc2)NC(=O)[C@@H](N)CSSC[C@@H](C(=O)N2CCC[C@H]2C(=O)N[C@@H](CC(C)C)C(=O)NCC(N)=O)NC(=O)[C@H](CC(N)=O)NC(=O)[C@H](CCC(N)=O)NC1=O,contraction amplitude,pregnant human myometrium strips,,0.00114 ± 0.00056 µM
[H]/N=C(/N)c1ccc(NCc2nc3cc(C(=O)N(CCC(=O)O)c4ccccn4)ccc3n2C)cc1,"platelet activation, inhibitor, item: ATP release",human platelet-rich plasma,"20% plasma, with: thrombin",0.031 µM
N[C@@H](CO)C(=O)O,"allosteric inhibitor, NADH absorbance",,"pH 9.0, Hill fit, with: substrate 10 mM, NAD+ 1 mM",1600 ± 100 µM
CC(=O)OCc1ccc(C=O)o1,"hydroxyl radical scavenging, in vitro",,50% scavenging,> 20 µM
CN(C)CCNC(=O)[C@@H](N)CSSC[C@H](N)C(=O)NCCN(C)C,L-cystine solubility,,"72 h, 20 °C",0.163 µM
CC(C)(C)OC(=O)N1CCC(OCc2nc(-c3ccncc3)no2)CC1,"short-circuit current reduction, agonist, Ussing chamber",mouse descending colon mucosa,"basolateral addition, with: VIP 10 nM",4.2 µM
COc1ccc(-c2cc(C(=O)Nc3cc(Cl)ccc3C)no2)cc1O,"membrane potential, rhodamine uptake",isolated mouse liver mitochondria,,> 100 µM
OC[C@H]1O[C@@H](Oc2cc3c(O)cc(O)cc3[o+]c2-c2cc(O)c(O)c(O)c2)[C@H](O)[C@@H](O)[C@@H]1O.[Cl-],"hydroxyl radical scavenging, in vitro",,50% scavenging,0.64 ± 0.06 µM
CCN(CC)CCNC(=O)c1c(C)[nH]c(/C=C2\C(=O)Nc3ccc(F)cc32)c1C,"subintestinal vessel angiogenesis, inhibitor",Danio rerio embryo,"96 hpf, 50% vessel length reduction",0.5 µM
COc1cc2ncnc(Nc3ccc(F)c(Cl)c3)c2cc1NC(=O)/C=C/CN1CCCCC1,"cell proliferation, inhibitor","Ba/F3 expressing EGFR V769_D770insASV, Mus musculus",,0.5 ± 0.2 µM
OC[C@H]1O[C@@H](Oc2cc3c(O)cc(O)cc3[o+]c2-c2ccc(O)c(O)c2)[C@H](O[C@@H]2OC[C@@H](O)[C@H](O)[C@H]2O)[C@@H](O)[C@@H]1O,"hydroxyl radical scavenging, in vitro",,50% scavenging,0.69 ± 0.08 µM
COc1cc(NC(=O)c2cc(-c3cccc(O)c3)on2)cc(OC)c1OC,"membrane potential, rhodamine uptake",isolated mouse liver mitochondria,,> 100 µM
COC(=O)c1cc(O)c(O)c(O)c1,"hydroxyl radical scavenging, in vitro",,50% scavenging,0.33 ± 0.04 µM
Nc1ccc2ccc3cccc4ccc1c2c34,developmental toxicity,zebrafish (Danio rerio) embryos,6 to 120 hpf,1.85 µM
CCCCCCNC(=O)NCCC/C=C\CCCCCCC(=O)O,vasorelaxation,bovine coronary artery rings,with: U46619,3.5 µM
COc1ccc(-c2cc(C(=O)Nc3cc(Cl)cnc3C)no2)cc1O,"membrane potential, rhodamine uptake",isolated mouse liver mitochondria,,> 100 µM
CC1(C)CNc2cc(NC(=O)c3cccnc3NCc3ccncc3)ccc21,"subintestinal vessel angiogenesis, inhibitor",Danio rerio embryo,"96 hpf, 50% vessel length reduction",0.25 µM
O=[N+]([O-])c1cc2ccccc2c2ccccc12,developmental toxicity,zebrafish (Danio rerio) embryos,6 to 120 hpf,1.81 µM
O=C(O)c1cc(O)c(O)c(O)c1,"hydroxyl radical scavenging, in vitro",,50% scavenging,0.41 ± 0.05 µM
c1ccc2c(c1)[nH]c1ccccc12,developmental toxicity,zebrafish (Danio rerio) embryos,6 to 120 hpf,15.2 µM
COc1cc(-c2cn(-c3ccc(Cl)cc3)nn2)[nH]c1/C=N/C1CCCCC1,"chloride/lactate exchange, ISE chloride efflux",POPC vesicles 0.5 mM,"300 s, pH 7.2, with: sodium lactate 40 mM",0.034 ± 0.004 µM
O=c1c(O[C@@H]2OC[C@@H](O)[C@H](O)[C@H]2O)c(-c2ccc(O)c(O)c2)oc2cc(O)cc(O)c12,"hydroxyl radical scavenging, in vitro",,50% scavenging,0.46 ± 0.04 µM
CC[C@H](C)[C@@H]1NC(=O)[C@H](CCCNC(=N)N)NC(=O)[C@H](CC(=O)O)NC(=O)[C@H](CC(C)C)NC(=O)[C@H](CCCCN)NC(=O)[C@H](CC(C)C)NC(=O)CNC(=O)[C@H](Cc2ccccc2)NC(=O)[C@@H](NC(=O)CNC(=O)[C@H](CCCCN)NC(=O)[C@H](CO)NC(=O)[C@H](CC(C)C)NC(=O)CNC(=O)[C@H](CCCCN)NC(=O)[C@H](CCCCN)NC(=O)[C@H](CC(N)=O)NC(=O)[C@H](C)NC(=O)CNC(=O)[C@H](CCCCN)NC(=O)[C@H](Cc2ccc(O)cc2)NC(=O)[C@H](CCCCN)NC(=O)[C@H](CCCNC(=N)N)NC(=O)[C@H](C)NC(=O)[C@H](CC(N)=O)NC(=O)[C@@H]2CCCN2C(=O)[C@H](Cc2c[nH]cn2)NC(=O)[C@H](CCC(=O)O)NC(=O)[C@H](CCC(N)=O)NC(=O)CNC(=O)[C@@H]2CCCN2)CSSC[C@@H](C(=O)O)NC(=O)CNC(=O)[C@H](CC(C)C)NC(=O)CNC(=O)[C@H](CO)NC(=O)[C@H](CCSC)NC(=O)[C@H](CO)NC(=O)CNC1=O,"annualized growth velocity change, Emax model on Cmax",achondroplasia patients,baseline to day 183,1.5 ng/mL
COc1cc(-c2cn(-c3ccc(C(C)(C)C)cc3)nn2)[nH]c1/C=N/C12CC3CC(CC(C3)C1)C2,"Cl-/HCO3- exchange, chloride ion-selective electrode",POPC vesicles 0.5 mM,"300 s, pH 7.2, with: NaHCO3 40 mM",0.039 ± 0.002 µM
OC[C@H]1O[C@@H](Oc2cc3c(O)cc(O)cc3[o+]c2-c2ccc(O)c(O)c2)[C@H](O)[C@@H](O)[C@@H]1O,"hydroxyl radical scavenging, in vitro",,50% scavenging,0.13 µM
Cc1ccc(Nc2nccc(N(C)c3ccc4c(C)n(C)nc4c3)n2)cc1S(N)(=O)=O,"subintestinal vessel angiogenesis, inhibitor",Danio rerio embryo,"96 hpf, 50% vessel length reduction",0.5 µM

# For quick reference, copied from above:
Substance,test,system,setting,EC50
COc1cc(NC(=O)c2cc(-c3cccc(O)c3)on2)cc(OC)c1OC,"membrane potential, rhodamine uptake",isolated mouse liver mitochondria,,> 100 µM
COC(=O)c1cc(O)c(O)c(O)c1,"hydroxyl radical scavenging, in vitro",,50% scavenging,0.33 ± 0.04 µM
